Measurements of several laboratories.
Lines come from different studies, so protocols differ.
Sequence of UniProt Q9NX63 (whole entry, looked up): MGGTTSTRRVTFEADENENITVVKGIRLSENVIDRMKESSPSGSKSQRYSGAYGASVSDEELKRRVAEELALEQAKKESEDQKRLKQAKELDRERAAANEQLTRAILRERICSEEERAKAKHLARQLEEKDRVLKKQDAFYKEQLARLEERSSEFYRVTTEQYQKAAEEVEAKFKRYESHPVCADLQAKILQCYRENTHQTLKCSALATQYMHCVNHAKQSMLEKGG

`CC1(C)SC2C(NC(=O)C(NC(=O)C3=C(O)C(Cc4ccsc4)NC3=O)c3ccccc3)C(=O)N2C1C(=O)O` (stereo not shown) gave an MIC of 25 µg/mL (Escherichia coli; broth microdilution; Keio mutant JW0587-1; 18 h, enterobactin-related gene).
With `C[C@@H](O)[C@@H](CO)NC(=O)[C@@H](CCCNC(=N)N)NC(=O)[C@@H]1CCCN1C(=O)[C@@H]1CSSC[C@H](NC(=O)[C@H](Cc2ccccc2)NC(=O)CN2CCN(CC(=O)O)CCN(CC(=O)O)CCN(CC(=O)O)CC2)C(=O)N[C@@H](Cc2ccc(O)cc2)C(=O)N[C@@H](Cc2ccccc2)C(=O)N[C@@H](CCC(N)=O)C(=O)N[C@@H](CC(N)=O)C(=O)N1` [gallium-68 labelled] the tissue uptake was 0.01 %ID/g (healthy Wistar rat, brain; intravenous, 8 MBq, 120 min, individual animals).
The MIC of `C[C@H](NC(=O)[C@H](CCCNC(=N)N)NC(=O)[C@H](Cc1c[nH]c2ccccc12)NC(=O)[C@H](CCCNC(=N)N)NC(=O)[C@H](Cc1c[nH]c2ccccc12)NC(=O)[C@H](Cc1c[nH]c2ccccc12)NC(=O)[C@H](Cc1c[nH]c2ccccc12)NC(=O)[C@H](CCCNC(=N)N)NC(=O)[C@H](Cc1c[nH]c2ccccc12)NC(=O)[C@H](CCCNC(=N)N)NC(=O)CN)C(N)=O` is reported as 4 µM (Candida albicans; broth microdilution; CGMCC 2.209, RPMI 1640-MOPS; 48 h, 30 °C, with: KCl 4.5 mM).
With `CC[C@H](C)[C@H](NC(=O)[C@H](Cc1ccccc1)NC(=O)[C@H](CCC(=O)O)NC(=O)[C@H](CCCNC(=N)N)NC(=O)[C@H](C)NC(=O)[C@H](C)NC(=O)[C@H](CCC(N)=O)NC(=O)[C@H](CCC(=O)O)NC(=O)[C@H](CCC(=O)O)NC(=O)[C@H](CC(C)C)NC(=O)[C@H](Cc1ccc(O)cc1)NC(=O)[C@H](CO)NC(=O)[C@H](CO)NC(=O)[C@@H](NC(=O)[C@H](CC(=O)O)NC(=O)[C@H](CO)NC(=O)[C@@H](NC(=O)[C@H](Cc1ccccc1)NC(=O)[C@@H](NC(=O)CNC(=O)[C@H](CCC(=O)O)NC(=O)[C@H](C)NC(=O)CCc1c[nH]cn1)[C@@H](C)O)[C@@H](C)O)C(C)C)C(=O)N[C@@H](C)C(=O)N[C@@H](Cc1c[nH]c2ccccc12)C(=O)N[C@@H](CC(C)C)C(=O)N[C@H](C(=O)N[C@@H](CCCNC(=N)N)C(=O)NCC(=O)N[C@@H](CCCNC(=N)N)C(=O)N[C@@H](CCCCNC(=O)COCCOCCNC(=O)COCCOCCNC(=O)CC[C@H](NC(=O)CCCCCCCCCCCCCCCCC(=O)O)C(=O)O)C(=O)NCC(=O)NCC(=O)N[C@@H](CO)C(=O)N[C@@H](CCCCNc1c(NCCCCCN(O)C(=O)CCC(=O)NCCCCCN(O)C(=O)CCC(=O)NCCCCCN(O)C(C)=O)c(=O)c1=O)C(=O)O)C(C)C` [zirconium-89 labelled] the tissue uptake was 0.16 %ID/g (rat, pancreas; sc, 3 nmol/kg, 24 h, ex vivo).
For `CC[C@H](C)[C@H](NC(=O)[C@H](CC(C)C)NC(=O)[C@H](CCCCN)NC(=O)[C@@H](NC(=O)[C@H](C)NC(=O)[C@H](CCC(=O)O)NC(=O)[C@H](Cc1c[nH]cn1)NC(=O)[C@@H](NC(=O)[C@H](CCCCN)NC(=O)[C@H](CCC(N)=O)NC(=O)[C@H](Cc1ccccc1)NC(=O)[C@@H](NC(=O)[C@H](CCCCN)NC(=O)[C@@H](N)CCCCN)C(C)C)[C@@H](C)CC)[C@@H](C)CC)C(N)=O`, the MIC was 45.1 µM (Gram-positive and Gram-negative bacteria; geometric mean).
With `Oc1c(Cl)cc(Cl)cc1-c1[nH]c(Cl)c(Cl)c1Cl` the MIC was 0.17 µM (Listeria ivanovii; BAA-139).
With `N=C(N)NCCC[C@H](NC(=O)[C@H](Cc1c[nH]c2ccccc12)NC(=O)[C@H](CCCNC(=N)N)NC(=O)[C@H](Cc1c[nH]c2ccccc12)NC(=O)[C@H](Cc1c[nH]c2ccccc12)NC(=O)[C@H](Cc1c[nH]c2ccccc12)NC(=O)[C@H](CCCNC(=N)N)NC(=O)[C@H](Cc1c[nH]c2ccccc12)NC(=O)[C@@H](N)CCCNC(=N)N)C(=O)N[C@@H](Cc1ccccc1)C(N)=O` the MIC was 8 µM (Candida albicans; broth microdilution; SP3902, RPMI 1640-MOPS; 48 h, 30 °C).
`CC[C@H](C)[C@H](NC(=O)CN)C(=O)NCC(=O)N[C@@H](C)C(=O)N[C@H](C(=O)N[C@@H](CC(C)C)C(=O)N[C@@H](CCCCN)C(=O)N[C@H](C(=O)N[C@@H](CC(C)C)C(=O)N[C@H](C(=O)N[C@H](C(=O)NCC(=O)N[C@@H](CC(C)C)C(=O)N1CCC[C@H]1C(=O)N[C@@H](C)C(=O)N[C@@H](CC(C)C)C(=O)N[C@H](C(=O)N[C@@H](CO)C(=O)N[C@@H](Cc1c[nH]c2ccccc12)C(=O)N[C@H](C(=O)N[C@@H](CCCCN)C(=O)N[C@@H](CCCNC(=N)N)C(=O)N[C@@H](CCCCN)C(=O)N[C@@H](CCCNC(=N)N)C(=O)N[C@@H](CCC(N)=O)C(=O)N[C@@H](CCC(N)=O)C(N)=O)[C@@H](C)CC)[C@@H](C)CC)[C@@H](C)O)[C@@H](C)O)C(C)C)C(C)C` has an MIC of 128 µM (Lacticaseibacillus rhamnosus; 1.038, probiotic strain; 24 h, 37 °C, tested up to 128 µM).
`COc1c(CCC[P+](c2ccccc2)(c2ccccc2)c2ccccc2)cc2c(c1OC)OCO2.[I-]` gave a TGI of -5.13 log M (KM12; SRB).
Under “log2 fold change”, `CC[C@H](C)[C@@H]1NC(=O)[C@@H]2CCCN2C(=O)[C@H](CC(C)C)NC(=O)[C@H](CC(C)C)NC(=O)CNC(=O)[C@@H](NC(=O)[C@@H](NC(=O)[C@H](CC(=O)O)NC(=O)CNC(=O)[C@@H](NC(=O)[C@H](C)NC(=O)CNC(=O)[C@H](CCCCN)NC(=O)[C@H](CC(C)C)NC(=O)[C@H](CC(C)C)NC(=O)[C@H](CCCCN)NC(=O)CNC(=O)[C@@H](NC(=O)[C@@H](N)CC(C)C)C(C)C)C(C)C)C(C)C)CSSC[C@@H](C(=O)O)NC1=O` is recorded as -3.17 (RNA-seq, measured: Sp140; mouse, traumatic brain injury model, frontal cortex and hippocampus; dose not given; relative to: TBI alone).
`CC1(C)SC2C(NC(=O)C(NC(=O)C3=C(O)CNC3=O)c3ccccc3)C(=O)N2C1C(=O)O` (stereo not shown) has an MIC of 50 µg/mL (Escherichia coli; broth microdilution; Keio mutant JW2142-1).
For `C[C@H]1CN(c2n[nH]c3nc(N[C@H]4CC[C@H](NS(=O)(=O)CCC(F)(F)F)CC4)ncc23)CCO1`, the remaining binding was 1.11 (MICOS complex subunit MIC19 (Homo sapiens, UniProt Q9NX63); Kinobeads competition, measured: CHCHD3; 0.8 µM, unit not given; relative to: vehicle).
The fold enrichment of `Nc1ncnc2c1ncn2[C@@H]1O[C@@H]2COP(=O)(O)O[C@H]3[C@@H](O)[C@H](n4cnc5c(=O)[nH]cnc54)O[C@@H]3COP(=O)(O)O[C@H]2[C@H]1O` is reported as 2.62 (Zika virus; upregulated Reactome pathway, RNA sequencing, measured: GPCR ligand binding (R-HSA-500792); HFF-1; relative to: ZIKV-infected untreated).
The TGI of `COc1cc(CCC[P+](c2ccccc2)(c2ccccc2)c2ccccc2)c(OC)c2c1OCO2.[I-]` is reported as -5.16 log M (Malme-3M; SRB).
The MIC of `CC1(C)SC2C(NC(=O)C(NC(=O)C3=C(O)C(Cc4ccc(F)cc4)NC3=O)c3ccccc3)C(=O)N2C1C(=O)O` (stereo not shown) is reported as 100 µg/mL (Escherichia coli; broth microdilution; isolate IU, CTX-M-14, TEM-1; with: clavulanic acid 6 µg/mL).
`OC(Cn1cncn1)(Cn1cncn1)c1ccc(F)cc1F` gave an MIC of 200 µM (Nakaseomyces glabratus; CG2, azole-resistant, RPMI 1640; 24 h, 35 °C).
For `CC1(C)S[C@@H]2[C@H](NC(=O)[C@H](N)c3ccccc3)C(=O)N2[C@H]1C(=O)O`, the MIC was greater than 200 µg/mL (Escherichia coli; broth microdilution; ATCC 35218, low-level TEM-1; no clavulanic acid).
`COc1cc2c(Oc3ccc4[nH]c(C)cc4c3F)ccnc2cc1OCC1(N)CC1` — result for “grade 3 abdominal pain”: 9.1% (paediatric recurrent refractory sarcoma; 12 mg).
The MIC of `N=C(N)NCCC[C@H](NC(=O)[C@H](Cc1c[nH]c2ccccc12)NC(=O)[C@H](CCCNC(=N)N)NC(=O)[C@H](Cc1c[nH]c2ccccc12)NC(=O)[C@H](Cc1c[nH]c2ccccc12)NC(=O)[C@H](Cc1c[nH]c2ccccc12)NC(=O)[C@H](CCCNC(=N)N)NC(=O)[C@H](Cc1c[nH]c2ccccc12)NC(=O)[C@H](CCCNC(=N)N)NC(=O)CN)C(N)=O` is reported as 4 µM (Candida albicans; broth microdilution; CGMCC 2.209, RPMI 1640-MOPS; 48 h, 30 °C, with: ZnCl2 8 µM).
`N=C(N)NCCC[C@H](NC(=O)CCCCCNC(=O)[C@H](CCCNC(=N)N)NC(=O)[C@H](CCCNC(=N)N)NC(=O)CCCCCNC(=O)[C@H](CCCNC(=N)N)NC(=O)[C@H](CCCNC(=N)N)NC(=O)CCCCCNC(=O)[C@H](CCCNC(=N)N)NC(=O)[C@H](CCCNC(=N)N)NC(=O)CCCCCNC(=O)[C@@H](N)CCCNC(=N)N)C(=O)NCCCCCC(=O)NCCC(=O)O` has an MIC of 96 µM (Escherichia coli; broth microdilution; ATCC 25922, Mueller-Hinton broth).
With `Clc1ccc(COc2cccc(CNCc3ccccc3)c2)cc1` the MIC was 7.8 to 31.3 µM (nontuberculous mycobacteria; range over strains).
`N=C(N)NCCC[C@H](NC(=O)CN)C(=O)N[C@@H](Cc1c[nH]c2ccccc12)C(=O)N[C@@H](CCCNC(=N)N)C(=O)N[C@@H](Cc1c[nH]c2ccccc12)C(=O)N[C@@H](Cc1c[nH]c2ccccc12)C(=O)N[C@@H](Cc1c[nH]c2ccccc12)C(=O)N[C@@H](CCCNC(=N)N)C(=O)N[C@@H](Cc1c[nH]c2ccccc12)C(=O)N[C@@H](CCCNC(=N)N)C(=O)N[C@@H](Cc1ccccc1)C(N)=O` gave an MIC of 8 µM (Candida albicans; broth microdilution; CGMCC 2.209, RPMI 1640-MOPS; 48 h, 30 °C).
The MIC of `CC[C@H](C)[C@H](NC(=O)[C@H](CCCCN)NC(=O)[C@H](CCCCN)NC(=O)[C@H](Cc1ccccc1)NC(=O)[C@@H](NC(=O)[C@@H](NC(=O)[C@H](CCCNC(=N)N)NC(=O)[C@H](Cc1ccccc1)NC(=O)[C@@H](NC(=O)[C@H](CCCCN)NC(=O)[C@H](CCCCN)NC(=O)[C@@H](N)CCSC)[C@@H](C)CC)C(C)C)[C@@H](C)CC)C(=O)N[C@@H](CC(C)C)C(=O)N[C@@H](CCCCN)C(=O)N[C@@H](CCCNC(=N)N)C(=O)N[C@@H](CC(C)C)C(=O)N[C@H](C(=O)N[C@H](C(=O)O)C(C)C)[C@@H](C)CC` is reported as 4 µg/mL (Staphylococcus aureus; broth microdilution; GU-1 MRSA; with: 4.5 mM KCl).
`N=C(N)NCCC[C@H](NC(=O)CN)C(=O)N[C@@H](Cc1c[nH]c2ccccc12)C(=O)N[C@@H](CCCNC(=N)N)C(=O)N[C@@H](Cc1c[nH]c2ccccc12)C(=O)N[C@@H](Cc1c[nH]c2ccccc12)C(=O)N[C@@H](Cc1c[nH]c2ccccc12)C(=O)N[C@@H](CCCNC(=N)N)C(=O)N[C@@H](Cc1c[nH]c2ccccc12)C(=O)N[C@@H](CCCNC(=N)N)C(=O)N[C@@H](Cc1c[nH]c2ccccc12)C(N)=O` gave an MIC of 4 µM (Candida albicans; broth microdilution; CGMCC 2.209, RPMI 1640-MOPS; 48 h, 30 °C, with: ZnCl2 8 µM).
For `CC1(C)SC2C(NC(=O)C(NC(=O)C3=C(O)C(c4ccccc4)NC3=O)c3ccccc3)C(=O)N2C1C(=O)O` (stereo not shown), the MIC was 100 µg/mL (Escherichia coli; broth microdilution; ATCC 35218, low-level TEM-1; with: clavulanic acid 6 µg/mL).
